# Published values gathered from unrelated publications.
# Each line is one published result; not all experiments were run side by side. Numbers after ± are the reported error.
# B1: CFH domains 1108-1231 R1210C (Homo sapiens, UniProt P08603); sequence looked up; chain KCGPPPPIDNGDITSFPLSVYAPASSVEYQCQNLYQLEGNKRITCRNGQWSEPPKCLHPCVISREIMENYNIALRWTAKQKLYSRTGESVEFVCKRGYRLSSCSHTLRTTCWDGKLEYPTCAKR
# B2: NR3C1 98-525 (Homo sapiens, UniProt P04150); pyrene label; chain MGNDLGFPQQGQISLSSGETDLKLLEESIANLNRSTSVPENPKSSASTAVSAAPTEKEFPKTHSDVSSEQQHLKGQTGTNGGNVKLYTTDQSTFDILQDLEFSSGSPGKETNESPWRSDLLIDENCLLSPLAGEDDSFLLEGNSNEDCKPLILPDTKPKIKDNGDLVLSSPSNVTLPQVKTEKEDFIELCTPGVIKQEKLGTVYCQASFPGANIIGNKMSAISVHGVSTSGGQMYHYDMNTASLSQQQDQKPIFNVIPPIPVGSENWNRCQGSGDDNLTSLGTLNFPGRTVFSNGYSSPSMRPDVSSPPSSSSTATTGPPPKLCLVCSDEASGCHYGVLTCGSCKVFFKRAVEGQHNYLCAGRNDCIIDKIRRKNCPACRYRKCLQAGMNLEARKTKKKIKGIQQATTGVSQETSENPGNKTIVPATL
# B3: Pigr 19-135 (Mus musculus, UniProt O70570); chain KSPIFGPQEVSSIEGDSVSITCYYPDTSVNRHTRKYWCRQGASGMCTTLISSNGYLSKEYSGRANLINFPENNTFVINIEQLTQDDTGSYKCGLGTSNRGLSFDVSLEVSQVPELPS
# B4: CFH 1108-1231 (Homo sapiens, UniProt P08603); sequence looked up; chain KCGPPPPIDNGDITSFPLSVYAPASSVEYQCQNLYQLEGNKRITCRNGQWSEPPKCLHPCVISREIMENYNIALRWTAKQKLYSRTGESVEFVCKRGYRLSSRSHTLRTTCWDGKLEYPTCAKR
# B5: GAB1 331-530 (Homo sapiens, UniProt Q13480); sequence looked up; chain TSKLDTIPDIPPPRPPKPHPAHDRSPVETCSIPRTASDTDSSYCIPTAGMSPSRSNTISTVDLNKLRKDASSQDCYDIPRAFPSDRSSSLEGFHNHFKVKNVLTVGSVSSEELDENYVPMNPNSPPRQHSSSFTEPIQEANYVPMTPGTFDFSSFGMQVPPPAHMGFRSSPKTPPRRPVPVADCEPPPVDRNLKPDRKVK
# B6: PLXND1 1553-1678 S1614V/T1615A (Homo sapiens, UniProt Q9Y4D7); chain AKPRNLNVSFQGCGMDSLSVRAMDTDTLTQVKEKILEAFCKNVPYSQWPRAEDVDLEWFASVAQSYILRDLDDTSVVEDGRKKLNTLAHYKIPEGASLAMSLIDKKDNTLGRVKDLDTEKYFHLVL
# B7: protein 1-89 (Arabidopsis thaliana, UniProt Q9LYC2); sequence looked up; chain MTMLRVRSRDGLERVSVDGPHITVSQLKTLIQDQLQIPIHNQTLSTNRNLLLAKSPSDFLAFTDMADPNLRISSLNLAHGSMVYLAYEG
# B8: IgG H:S99A; V domains shown; VH QVQLVQSGAEVKKPGASVKVSCKASGYTFTNYGLSWVRQAPGQGLEWMGWISANNGDTNYGQEFQGRVTMTTDTSTSTAYMELRSLRSDDTAVYYCARDSSSAWARWFFDLWGRGTLVTVSS; VL SYVLTQPPSVSVAPGKTARITCGGNIIGSKLVHWYQQKPGQAPVLVIYDDGDRPSGIPERFSGSNSGNTATLTISRVEAGDEADYYCQVWDTGSDPVVFGGGTKLTVL
# B9: C1S 438-688 S632A (Homo sapiens, UniProt P09871); chain IIGGSDADIKNFPWQVFFDNPWAGGALINEYWVLTAAHVVEGNREPTMYVGSTSVQTSRLAKSKMLTPEHVFIHPGWKLLEVPEGRTNFDNDIALVRLKDPVKMGPTVSPICLPGTSSDYNLMDGDLGLISGWGRTEKRDRAVRLKAARLPVAPLRKCKEVKVEKPTADAEAYVFTPNMICAGGEKGMDSCKGDAGGAFAVQDPNDKTKFYAAGLVSWGPQCGTYGLYTRVKNYVDWIMKTMQENSTPRED
# B10: UBP10 157-792 (Saccharomyces cerevisiae, UniProt P53874); chain KASLKERDNADKGDGEDIGEDIGEDIGEDIGEDIGEDIGENLGSPLATIDDSSNENEKEKRKELSTSISSDDEIEDDEDEDDMDYDSSAMEKELPEEEENDSSSKISEGEKKSLYQDLMENSTVEVNRYEPVNNTKENGNRNPKGEEEEEEEEELKHKSRSITPPVTISNLSNFYQFNENINDRGSLNSTRIVKNWGDKFTNLKPRGLLNHGVTCYTNAAVQAMLHIPSIQHYLFDILMGKYDSTISKNSVSYTLAETSKKMWLPVSKNPRKNVSASYINPKHLISRLDDINCMMSEWQQEDSHEYFMSLMSRLQEDSVPKGHKLIESIIYDIFGGLLKQIVTCKSCGSISKTEQPFYDLSLHLKGKKKLDPNSDLSSDSINGTSATTSTTTSNAATKPSLSSSSSVNLNNGSPFAAASDLSSANRRFSIEKSIKDFFNPELIKVDKEQKGYVCEKCHKTTNAVKHSSILRAPETLLVHLKKFRFNGTSSSKMKQAVSYPMFLDLTEYCESKELPVKYQLLSVVVHEGRSLSSGHYIAHCKQPDGSWATYDDEYINIISERDVLKEPNAYYLLYTRLTPKSVPLPLAKSAMATGNVTSKSKQEQAVNEPNNRPLKINSKKNNRKKWKKNKKRKFTK
# B11: Bcl2l11 (Mus musculus, UniProt O54918-2); chain MAKQPSDVSSECDREGGQLQPAERPPQLRPGAPTSLQTEPQDRSPAPMSCDKSTQTPSPPCQAFNHYLSAMASIRQSQEEPEDLRPEIRIAQELRRIGDEFNETYTRRVFANDYREAEDHPQMVILQLLRFIFRLVWRRH
# B12: CD112 D1 domain 32-160 (human, UniProt Q92692); sequence looked up; chain QDVRVQVLPEVRGQLGGTVELPCHLLPPVPGLYISLVTWQRPDAPANHQNVAAFHPKMGPSFPSPKPGSERLSFVSAKQSTGQDTEAELQDATLALHGLTVEDEGNYTCEFATFPKGSVRGMTWLRVIA
# B13: Cacna1c 1647-1777 (Mus musculus, UniProt Q01815); sequence looked up; chain NALSLQAGLRTLHDIGPEIRRAISGDLTAEEELDKAMKEAVSAASEDDIFRRAGGLFGNHVTYYQSDSRGNFPQTFATQRPLHINKTGNNQADTESPSHEKLVDSTFTPSSYSSTGSNANINNANNTALGR
# UniProt P01024, sequence (whole entry, looked up): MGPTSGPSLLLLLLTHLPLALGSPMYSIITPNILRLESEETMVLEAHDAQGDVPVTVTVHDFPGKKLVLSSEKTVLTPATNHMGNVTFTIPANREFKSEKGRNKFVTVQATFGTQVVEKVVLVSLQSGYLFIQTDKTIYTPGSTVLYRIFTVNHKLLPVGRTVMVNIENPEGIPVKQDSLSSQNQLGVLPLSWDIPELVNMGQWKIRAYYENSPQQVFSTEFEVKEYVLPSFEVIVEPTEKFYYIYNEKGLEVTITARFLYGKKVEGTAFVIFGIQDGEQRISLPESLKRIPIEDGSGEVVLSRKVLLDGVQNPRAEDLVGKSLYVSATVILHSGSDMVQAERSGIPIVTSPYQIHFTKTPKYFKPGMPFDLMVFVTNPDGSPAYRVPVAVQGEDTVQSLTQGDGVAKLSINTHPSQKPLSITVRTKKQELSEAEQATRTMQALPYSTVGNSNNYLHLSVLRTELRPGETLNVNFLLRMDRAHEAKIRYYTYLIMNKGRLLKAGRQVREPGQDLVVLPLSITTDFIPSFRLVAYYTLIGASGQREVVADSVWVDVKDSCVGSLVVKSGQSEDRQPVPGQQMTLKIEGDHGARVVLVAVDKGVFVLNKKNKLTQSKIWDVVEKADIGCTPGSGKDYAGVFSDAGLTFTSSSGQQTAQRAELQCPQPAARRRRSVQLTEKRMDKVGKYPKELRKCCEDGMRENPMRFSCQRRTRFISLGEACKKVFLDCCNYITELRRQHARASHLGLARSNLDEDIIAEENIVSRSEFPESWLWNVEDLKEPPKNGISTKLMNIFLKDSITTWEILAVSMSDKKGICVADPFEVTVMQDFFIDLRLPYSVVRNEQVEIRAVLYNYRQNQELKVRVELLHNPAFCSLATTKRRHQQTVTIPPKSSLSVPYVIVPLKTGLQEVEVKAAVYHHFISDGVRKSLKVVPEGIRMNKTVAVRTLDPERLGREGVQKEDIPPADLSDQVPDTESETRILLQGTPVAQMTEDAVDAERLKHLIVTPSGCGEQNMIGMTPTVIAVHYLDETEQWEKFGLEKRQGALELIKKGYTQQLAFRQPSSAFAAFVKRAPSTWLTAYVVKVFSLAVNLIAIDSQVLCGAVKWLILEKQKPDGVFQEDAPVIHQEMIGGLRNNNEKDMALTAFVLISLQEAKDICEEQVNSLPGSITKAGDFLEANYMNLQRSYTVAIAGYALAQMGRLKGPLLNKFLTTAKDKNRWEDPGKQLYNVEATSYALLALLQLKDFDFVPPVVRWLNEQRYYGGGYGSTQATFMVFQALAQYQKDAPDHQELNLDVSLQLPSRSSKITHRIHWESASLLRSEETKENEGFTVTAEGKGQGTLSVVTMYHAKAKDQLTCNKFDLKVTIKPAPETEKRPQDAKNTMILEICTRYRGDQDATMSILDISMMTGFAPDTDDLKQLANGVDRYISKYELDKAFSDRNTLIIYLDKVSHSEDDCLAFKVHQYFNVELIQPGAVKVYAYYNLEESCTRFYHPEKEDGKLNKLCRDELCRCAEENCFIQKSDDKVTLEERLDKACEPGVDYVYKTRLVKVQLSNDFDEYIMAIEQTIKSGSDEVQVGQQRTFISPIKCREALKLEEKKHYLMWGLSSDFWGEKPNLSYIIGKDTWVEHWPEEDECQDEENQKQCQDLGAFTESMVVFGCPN
# UniProt P54609, sequence (whole entry, looked up): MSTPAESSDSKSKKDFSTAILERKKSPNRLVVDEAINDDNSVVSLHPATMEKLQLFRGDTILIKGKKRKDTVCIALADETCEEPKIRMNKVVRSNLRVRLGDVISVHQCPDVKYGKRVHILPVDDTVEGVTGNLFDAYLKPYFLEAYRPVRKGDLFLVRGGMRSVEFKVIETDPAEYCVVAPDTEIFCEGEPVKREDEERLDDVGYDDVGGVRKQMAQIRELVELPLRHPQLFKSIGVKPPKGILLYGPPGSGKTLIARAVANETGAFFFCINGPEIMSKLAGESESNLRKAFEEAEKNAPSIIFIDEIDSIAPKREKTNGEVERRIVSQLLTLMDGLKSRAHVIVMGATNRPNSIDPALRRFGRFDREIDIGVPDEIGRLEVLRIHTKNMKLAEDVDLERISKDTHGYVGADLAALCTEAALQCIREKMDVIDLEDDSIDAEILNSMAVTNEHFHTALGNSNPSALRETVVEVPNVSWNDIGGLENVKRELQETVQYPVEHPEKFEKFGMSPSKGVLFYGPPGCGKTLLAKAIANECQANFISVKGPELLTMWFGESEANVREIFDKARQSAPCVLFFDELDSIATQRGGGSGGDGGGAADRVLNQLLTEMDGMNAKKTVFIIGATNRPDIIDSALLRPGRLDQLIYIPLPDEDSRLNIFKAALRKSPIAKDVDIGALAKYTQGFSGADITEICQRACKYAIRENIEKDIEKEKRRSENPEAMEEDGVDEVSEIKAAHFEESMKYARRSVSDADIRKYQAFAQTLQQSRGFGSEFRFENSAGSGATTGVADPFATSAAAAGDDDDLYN
# UniProt P38646, sequence (whole entry, unmodified, looked up): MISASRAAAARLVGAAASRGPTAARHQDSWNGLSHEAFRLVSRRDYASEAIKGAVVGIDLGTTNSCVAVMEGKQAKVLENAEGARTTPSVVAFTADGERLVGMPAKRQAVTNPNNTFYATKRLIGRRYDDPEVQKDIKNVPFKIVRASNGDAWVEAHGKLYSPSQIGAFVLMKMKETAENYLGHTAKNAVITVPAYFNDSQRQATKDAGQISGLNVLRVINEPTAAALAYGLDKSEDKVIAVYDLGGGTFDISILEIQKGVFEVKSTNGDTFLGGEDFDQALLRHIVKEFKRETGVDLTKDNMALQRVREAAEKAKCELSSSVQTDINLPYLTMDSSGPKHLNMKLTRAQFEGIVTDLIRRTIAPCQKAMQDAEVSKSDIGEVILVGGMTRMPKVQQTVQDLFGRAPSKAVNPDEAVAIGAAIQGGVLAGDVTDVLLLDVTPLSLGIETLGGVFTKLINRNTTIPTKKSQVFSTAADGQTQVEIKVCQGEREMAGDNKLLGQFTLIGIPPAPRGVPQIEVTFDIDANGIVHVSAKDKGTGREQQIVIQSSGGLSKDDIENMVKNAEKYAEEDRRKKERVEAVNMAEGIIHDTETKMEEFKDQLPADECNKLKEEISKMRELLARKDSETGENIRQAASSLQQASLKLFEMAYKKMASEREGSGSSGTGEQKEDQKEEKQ
# UniProt P05155, sequence (whole entry, looked up): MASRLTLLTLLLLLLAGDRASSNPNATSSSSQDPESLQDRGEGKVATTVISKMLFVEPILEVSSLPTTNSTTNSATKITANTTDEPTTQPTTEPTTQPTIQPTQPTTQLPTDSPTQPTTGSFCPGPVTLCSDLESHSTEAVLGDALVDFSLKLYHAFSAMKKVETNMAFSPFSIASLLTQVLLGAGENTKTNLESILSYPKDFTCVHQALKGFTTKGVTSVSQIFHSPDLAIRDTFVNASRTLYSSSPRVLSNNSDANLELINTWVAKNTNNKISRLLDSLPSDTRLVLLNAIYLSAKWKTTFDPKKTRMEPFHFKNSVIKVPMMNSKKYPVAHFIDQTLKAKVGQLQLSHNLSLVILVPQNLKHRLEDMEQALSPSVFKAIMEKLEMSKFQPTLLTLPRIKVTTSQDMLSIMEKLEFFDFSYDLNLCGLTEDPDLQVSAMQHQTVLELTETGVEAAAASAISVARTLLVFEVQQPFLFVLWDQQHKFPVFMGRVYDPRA
# UniProt Q99816, sequence (whole entry, looked up): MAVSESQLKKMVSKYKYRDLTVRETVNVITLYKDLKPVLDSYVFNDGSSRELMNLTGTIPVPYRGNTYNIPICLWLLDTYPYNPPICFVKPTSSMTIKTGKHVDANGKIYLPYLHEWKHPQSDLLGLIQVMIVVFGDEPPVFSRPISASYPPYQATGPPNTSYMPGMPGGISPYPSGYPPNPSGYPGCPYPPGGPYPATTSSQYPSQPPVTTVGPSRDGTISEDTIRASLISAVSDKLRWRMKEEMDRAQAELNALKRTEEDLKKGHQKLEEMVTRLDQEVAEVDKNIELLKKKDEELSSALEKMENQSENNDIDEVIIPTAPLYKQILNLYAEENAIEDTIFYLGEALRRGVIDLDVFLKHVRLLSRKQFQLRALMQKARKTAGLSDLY
# UniProt P09429, sequence (whole entry, looked up): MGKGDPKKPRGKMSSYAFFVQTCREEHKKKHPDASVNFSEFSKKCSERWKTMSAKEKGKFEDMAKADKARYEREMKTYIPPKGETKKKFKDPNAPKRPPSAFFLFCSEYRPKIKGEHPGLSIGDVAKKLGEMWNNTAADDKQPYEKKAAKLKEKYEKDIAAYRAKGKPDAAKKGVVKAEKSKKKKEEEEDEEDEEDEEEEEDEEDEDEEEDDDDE
# UniProt O60603, sequence (whole entry, looked up): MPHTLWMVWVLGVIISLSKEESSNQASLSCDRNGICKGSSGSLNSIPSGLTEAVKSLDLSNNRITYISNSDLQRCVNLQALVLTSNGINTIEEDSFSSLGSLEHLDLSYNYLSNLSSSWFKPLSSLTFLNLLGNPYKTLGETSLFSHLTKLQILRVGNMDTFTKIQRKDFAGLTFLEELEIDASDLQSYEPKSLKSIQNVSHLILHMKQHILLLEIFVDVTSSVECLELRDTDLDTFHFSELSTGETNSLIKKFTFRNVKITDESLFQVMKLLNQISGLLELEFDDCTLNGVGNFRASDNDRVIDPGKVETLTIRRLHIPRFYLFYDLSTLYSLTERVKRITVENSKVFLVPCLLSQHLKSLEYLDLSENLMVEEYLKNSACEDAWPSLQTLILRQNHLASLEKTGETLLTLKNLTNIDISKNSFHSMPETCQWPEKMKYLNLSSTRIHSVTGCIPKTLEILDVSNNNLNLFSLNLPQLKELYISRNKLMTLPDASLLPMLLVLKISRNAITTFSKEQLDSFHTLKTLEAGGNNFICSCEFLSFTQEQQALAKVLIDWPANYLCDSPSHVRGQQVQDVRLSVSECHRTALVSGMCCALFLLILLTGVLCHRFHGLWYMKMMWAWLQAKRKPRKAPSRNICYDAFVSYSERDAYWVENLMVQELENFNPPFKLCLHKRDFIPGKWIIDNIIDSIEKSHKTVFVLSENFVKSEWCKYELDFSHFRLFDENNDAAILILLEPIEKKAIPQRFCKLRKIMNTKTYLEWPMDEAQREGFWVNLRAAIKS
Molecule,target or system,test,test system,setting,scale,quantity,value
B1 (CFH domains 1108-1231 R1210C),"C3 C3dg 955-1303 (Homo sapiens, UniProt P01024)",SPR,,,,Kd,2.4 ± 0.1 µM
B2 (NR3C1 98-525),"TSG101 229-304 coiled coil, pyrene label (Homo sapiens, UniProt Q99816)",fluorescence anisotropy,,,,Kd,73 µM
"WDCLDNRIGRRQCVKL (DR5-targeting peptide; cyclic, disulfide, Cy5 label, PEG2 linker)","TNFRSF10B (Homo sapiens, UniProt O14763)",flow cytometry,"peptide, COLO205",,,Kd,1.62 µM
B3 (Pigr 19-135),IgA Fc/J chain CH2-CH3 domains Y135A (Mus musculus),SPR,,,,Kd,1.1 µM
B4 (CFH 1108-1231),"C3 996-1303 (Homo sapiens, UniProt P01024)",SPR,,,,Kd,8.2 ± 0.6 µM
GGWVEKETYY,human MAGI1-2/6 PDZ construct (MBP fusion),surface plasmon resonance,peptide,concentration not given,higher = stronger binding,normalised SPR binding response,0 normalised RU
"KLLMIIHDRREFAKFEKEKMNAKWDTQENPIYKSAVTTVVNPKYEGK (ITGB1 752-798 G778Q (Homo sapiens, UniProt P05556-1); sequence looked up)","Tln1 309-405 (Mus musculus, UniProt P26039)",NMR titration,,,,Kd,312 µM
PUX6 fragment (Arabidopsis thaliana),"CDC48A 1-463 (Arabidopsis thaliana, UniProt P54609)",ITC,,10 °C,,Kd,11.2 ± 1.1 µM
KHNYN NYN-CTD,"ZC3HAV1 RBD 2-227 (Homo sapiens, UniProt Q7Z2W4)",BLI,,,,Kd,0.31 ± 0.2 µM
MMHVNNFPFRRHSWICFDVD (PDE4D 1-20; pS13),"AKAP6 (Homo sapiens, UniProt Q13023-1)",SPR,peptide,,,Kd,1.5 µM
"HMGB1 (Homo sapiens, UniProt P09429)","TLR2 (Homo sapiens, UniProt O60603)",SPR,,,,Kd,0.496 µM
B5 (GAB1 331-530),"GRB2 (Homo sapiens, UniProt P62993)",ITC,,,,Kd,7.58 µM
B6 (PLXND1 1553-1678 S1614V/T1615A),"RND2 1-227 (Homo sapiens, UniProt P52198)",SPR,,,,Kd,4.13 ± 0.07 µM
B7 (protein 1-89),"CDC48A (Arabidopsis thaliana, UniProt P54609)",ITC,,added: AMPPNP,,Kd,3.2 µM
B8 (IgG H:S99A),IL13 fragment (Homo sapiens),SPR,antibody,,,Kd,5.7e-05 µM
B9 (C1S 438-688 S632A),"SERPING1 111-500 (Homo sapiens, UniProt P05155)",SPR,,added: Ca2+,,Kd,2.6 µM
PKRSFIESNV,human SCRIB PDZ3-4 tandem (MBP fusion),automated holdup,"peptide, purified PDZ protein","concentration not given, unit not given","baseline: biotin control resin, higher = stronger binding",binding intensity,0.945
CALLLSAPRR (GOT2 (Gallus gallus); fluorescein label),"HSPA9 mature A475W/V482F (Homo sapiens, UniProt P38646)",FP,peptide,,,Kd,> 150 µM
B10 (UBP10 157-792),HTA1/HTB1 H2A/H2B heterodimer 2-132 (Saccharomyces cerevisiae),ITC,,,,Kd,0.158 ± 0.071 µM
"CREBBP KIX domain (Homo sapiens, UniProt Q92793)","CREB fragment, pSer133, FITC label (Homo sapiens)",fluorescence polarization,,,,Kd,0.41 µM
SCN2A fragment I1912A (Homo sapiens) (sequence not shown),"CALM1 (Homo sapiens, UniProt P0DP23)",fluorescence titration,,"pH 7.4, 22 °C, added: calcium",,Kd,0.391 µM
B11 (Bcl2l11),"BCL2L1 (Homo sapiens, UniProt Q07817-1)",FRET or BRET,,not purified,,Kd,6 µM
B12 (CD112 D1 domain 32-160),PVRIG/Fc Fc fusion (Homo sapiens),BLI,,,,Kd,0.158 µM
"petF ferredoxin (Synechocystis sp. PCC 6803, UniProt P27320)",narB D163N (Synechococcus sp. PCC 7942),UV-visible difference titration,,,,Kd,20.7 ± 11.3 µM
ENAH EVH1 domain (Homo sapiens),RARA peptide (Homo sapiens),BLI,,,,Kd,> 150 µM
ABL1 fragment (Homo sapiens),"CRK 245-259, pY251 (Homo sapiens)",ITC,,,,Kd,85.5 µM
GCVRLHESCLGQQVPCCDPAATCYCSGRGDNDLVCYCR (designed binder),ITGAV/ITGB3 U87MG cells (Homo sapiens),flow cytometry,"designed binder, U87MG",,,Kd,0.00078 µM
colistin,Enterobacter cloacae,broth microdilution,clinical isolate RKI-No_348/15,,,MIC,≤ 0.5 µg/mL
B13 (Cacna1c 1647-1777),"Jph2 1-440 S165C (Mus musculus, UniProt Q9ET78)",ITC,,,,Kd,6.92 µM

# Some of these lines once more:
Molecule,target or system,test,test system,setting,scale,quantity,value
colistin,Enterobacter cloacae,broth microdilution,clinical isolate RKI-No_348/15,,,MIC,≤ 0.5 µg/mL
ABL1 fragment (Homo sapiens),"CRK 245-259, pY251 (Homo sapiens)",ITC,,,,Kd,85.5 µM
